Assay results collected from several papers.

| SMILES | test | test system | setting | how to read | measurement | value |
| --- | --- | --- | --- | --- | --- | --- |
| O=C(O)CNC(=O)Cc1ccccc1 |  | ventricular cardiomyocytes, C57BL/6 mouse | dose not given, 0.796 s |  | sarcomere length | 1.7 µm |
| Cc1n[nH]c2ccc(-c3cc(OC[C@@H](N)Cc4ccccc4)cnc3-c3ccoc3)cc12 | kinase binding, competitor, MIB/MS competition, refers to: FPK1 | Candida albicans cell lysate | 100 nM | reference: DMSO | log2 fold change | 0.0443 |
| OC(CCN1CCCCC1)(c1ccccc1)C1CC2C=CC1C2 (centres unmarked) | resting-state EEG | healthy elderly humans | oral, 4 mg, eyes open, LS mean | reference: baseline | change in EEG Beta3-power Pz-O2 | 6.3% |
| C[C@H](Oc1ccc(Br)cc1-c1ccon1)C(=O)O | muscle velocity recovery cycles | human, tibialis anterior muscle | 600 mg once daily, multiple doses, 30 Hz train for 30 s | reference: placebo | peak amplitude change | 13.4% |
| N#CCC1CCN(c2nc(Nc3ccc(N4CCC(O)CC4)cc3)c3c(=O)[nH]ncc3n2)CC1 | Olink multiplex, refers to: CD163 | human, serum | 80 mg, day 15 | reference: baseline | fold change from baseline | -1.35 |
| CC(C)NCC(O)c1ccc(O)c(O)c1 (centres unmarked) |  | ventricular cardiomyocytes, C57BL/6 mouse | dose not given, 0.44 s |  | sarcomere length | 1.72 µm |
| N#Cc1ccn2c(-c3ccncc3)c(-c3ccc(F)cc3)nc2c1 | kinase binding, competitor, MIB/MS competition, refers to: SCH9 | Candida albicans cell lysate | 1 µM | reference: DMSO | log2 fold change | -0.109 |
| NC(=O)c1cnc2[nH]ccc2c1N[C@@H]1[C@@H]2CC3C[C@H]1C[C@@](O)(C3)C2 | flow cytometry, refers to: CD8+ naive T cells | Japanese healthy subjects, peripheral blood | oral, 30 mg twice daily, day 7 |  | change from baseline | -1.48% |

Repeated from above:
| SMILES | test | test system | setting | how to read | measurement | value |
| --- | --- | --- | --- | --- | --- | --- |
| Cc1n[nH]c2ccc(-c3cc(OC[C@@H](N)Cc4ccccc4)cnc3-c3ccoc3)cc12 | kinase binding, competitor, MIB/MS competition, refers to: FPK1 | Candida albicans cell lysate | 100 nM | reference: DMSO | log2 fold change | 0.0443 |
